Measurements collected from several papers.
“And” joins repeats or separate records; there may be more than shown. Numbers after ± are the reported error.

Cc1cc(Nc2nc(C[C@@]3(C(=O)O)CCN(Cc4cccc(Cl)c4F)[C@H](C)C3)cc(C)c2F)[nH]n1 — IC50 (HCT-15; cell growth or viability, ATP luminescence; 5 days): 1.75 µM
CN(C)c1ccc(-c2nc3cc(C(=O)Nc4ccc(Cl)cc4)ccc3[nH]2)cc1 — IC50 (HCT-116; cell death): 3.43 µM
CC(=O)N[C@H](C(=O)N[C@@H](CCCNC(=N)N)C(=O)N[C@@H](CCCCN)C(=O)N[C@@H](CCCNC(=N)N)C(=O)N[C@@]1(C)CCCC=CCCC[C@@](C)(C(=O)N[C@@H](CC(C)C)C(=O)N[C@@H](CCC(N)=O)C(=O)N[C@@H](CCC(=O)O)C(=O)N[C@@H](CCCNC(=N)N)C(=O)N[C@@H](CCC(=O)O)C(=O)N[C@@H](CC(C)C)C(=O)N[C@H](C(=O)N[C@@H](CCC(=O)O)C(N)=O)C(C)C)NC(=O)[C@H](CCCNC(=N)N)NC(=O)[C@H](CCCNC(=N)N)NC(=O)[C@H](CC(C)C)NC1=O)C(C)C — IC50 (H1975 (EGFR L858R/T790M); cell viability, ATP luminescence; 18 h): 32.3 ± 9.37 µM
Cc1ccc(C(C)C)cc1.Cc1ccc(C(C)C)cc1.Cc1ccc(C(C)C)cc1.Cc1ccc(C(C)C)cc1.O=S(=O)(O)C(F)(F)F.O=S(=O)(O)C(F)(F)F.O=S(=O)(O)C(F)(F)F.O=S(=O)(O)C(F)(F)F.c1ccc2c3c4ccccc4c(c2c1)-c1cn(nn1)-c1cc[n+](cc1)[Ru-]1[O]c2ccc4c5c(ccc(c25)=[O+]1)=[O+][Ru-]([O]4)[n+]1ccc(cc1)-n1cc(nn1)-c1c2ccccc2c(c2ccccc12)-c1cn(nn1)-c1cc[n+](cc1)[Ru-]1[O]c2ccc4c5c(ccc(c25)=[O+]1)=[O+][Ru-]([O]4)[n+]1ccc(cc1)-n1cc-3nn1 — IC50 (HCT-15; cell growth, MTT; 24 h, after 24 h preincubation in medium at 37 °C): 7.6 ± 0.16 µM
Cc1cc(C)cc(COc2cc3c(cc2OCc2cc(C)cc(C)c2)C2CC(O)(Cc4cn(CCCCCCNC(=O)CNc5cccc6c5C(=O)N(C5CCC(=O)NC5=O)C6=O)nn4)CC(C)N2CC3)c1 (racemic) — IC50 (ASPC1; cell growth or viability, MTT): 1.05 µM
CC1CCC2C(C)C(OC(=O)CCC(=O)OC3C(C)OC(n4cc(F)c(=O)[nH]c4=O)C3OC(=O)CCC(=O)OC3OC4OC5(C)CCC6C(C)CCC(C3C)C46OO5)OC3OC4(C)CCC1C32OO4 (centres unmarked) — IC50 (MCF-10A; cell growth or viability, CCK-8): 8.47 µM
CCC1=C(C)C2=C(c3ccc(P(=NC4=[O+][Ru-]([Cl])[n+]5ccccc54)(c4ccccc4)c4ccccc4)cc3)c3c(C)c(CC)c(C)n3[B-](C)(C)[N+]2=C1C.Cc1ccc(C(C)C)cc1.Cl — IC50 (MCF-10A; cell growth or viability, MTT): 66.9 µM
CC(=O)N[C@H](C(=O)N[C@@H](CCCNC(=N)N)C(=O)N[C@@H](CCCCN)C(=O)N[C@@H](CCCNC(=N)N)C(=O)N[C@H](C(=O)N[C@@H](CC(C)C)C(=O)N[C@@H](CCCNC(=N)N)C(=O)N[C@@]1(C)CCCC=CCCC[C@@](C)(C(=O)N[C@@H](CCCNC(=N)N)C(=O)N[C@@H](CCC(=O)O)C(=O)N[C@@H](CC(C)C)C(=O)N[C@H](C(=O)N[C@@H](CCC(=O)O)C(N)=O)C(C)C)NC(=O)[C@H](CCC(N)=O)NC(=O)[C@H](CC(C)C)NC(=O)[C@H](CC(C)C)NC1=O)[C@@H](C)O)C(C)C — IC50 (SK-N-MC (no EGFR or ErbB2-4); cell viability, ATP luminescence; 18 h): > 10 µM
CCC1=C(C)C2=C(c3ccc(C(=O)NCCNC(=O)c4ccc(P(=NC(=O)c5ccccn5)(c5ccccc5)c5ccccc5)cc4)cc3)c3c(C)c(CC)c(C)n3[B-](F)(F)[N+]2=C1C — IC50 (MCF-10A; cell viability, MTT; 72 h, 0.1% DMSO): not toxic
O=c1n(CCNCCOS(=O)(=O)c2ccccc2)c(=O)n(S(=O)(=O)c2ccccc2)c(=O)n1S(=O)(=O)c1ccccc1 — IC50 (A549; cell growth or viability, MTT; 48 h): 9.14 µg/mL
Cc1ccccc1/C=C/C(=O)N[C@@H](CO)C(=O)N[C@H](C(=O)N[C@H](Cc1ccccc1)C(=O)N[C@@H]1C(=O)N2[C@@H](CC(=O)O)C(=O)Nc3ccccc3[C@@]2(O)[C@@H]1O)[C@@H](C)O — IC50 (HCT-116): > 20 µM
COc1cccc2c1C(=O)C=CC2=O — IC50 (HFF-1; cell growth or viability, MTT; 48 h): 14.1 µM
CC(=O)N[C@H](C(=O)N[C@@H](CCCNC(=N)N)C(=O)N[C@@H](CCCCN)C(=O)N[C@@H](CCCNC(=N)N)C(=O)N[C@H](C(=O)N[C@@H](CC(C)C)C(=O)N[C@@H](CCCNC(=N)N)C(=O)N[C@]1(C)CCCCCCC=CCCC[C@@](C)(C(=O)N[C@H](C(=O)N[C@@H](CCC(=O)O)C(N)=O)C(C)C)NC(=O)[C@H](CCC(=O)O)NC(=O)[C@H](CCCNC(=N)N)NC(=O)[C@H](CCC(=O)O)NC(=O)[C@H](CCC(N)=O)NC(=O)[C@H](CC(C)C)NC(=O)[C@H](CC(C)C)NC1=O)[C@@H](C)O)C(C)C — IC50 (SK-N-MC (no EGFR or ErbB2-4); cell viability, ATP luminescence; 18 h): > 100 µM
C1N2CN3CN1CP(C2)C3.COc1ccc(C(O)=CC(=O)c2ccc(C(C)(C)C)cc2)cc1.Cc1ccc(C(C)C)cc1.[Ru+2] — IC50 (HL-60; cytotoxicity; dark): 0.14 µM
CC(C)C12OC1C1OC13C1(C)CCC4=C(COC4=O)C1CC1OC13C2OC(=O)CCCOC1OC(CO)C(O)C(O)C1O (centres unmarked) — IC50 (human cancer cell lines; cell viability, XTT): 3.94 µM
O=C(Cc1ccc(Cl)cc1)N1CCN(CC(OCc2ccc3ccccc3c2)c2ccc(Cl)cc2Cl)CC1 (centres unmarked) — IC50 (MDA-MB-468; cell growth or viability, MTT; 24 h): 15 µM
CC(=O)N[C@H](C(=O)N[C@@H](CCCNC(=N)N)C(=O)N[C@@H](CCCCN)C(=O)N[C@@H](CCCNC(=N)N)C(=O)N[C@H](C(=O)N[C@@]1(C)CCCC=CCCC[C@@](C)(C(=O)N[C@@H](CCC(N)=O)C(=O)N[C@@H](CCC(=O)O)C(=O)N[C@@H](CCCNC(=N)N)C(=O)N[C@@H](CCC(=O)O)C(=O)N[C@@H](CC(C)C)C(=O)N[C@H](C(=O)N[C@@H](CCC(=O)O)C(N)=O)C(C)C)NC(=O)[C@H](CC(C)C)NC(=O)[C@H](CCCNC(=N)N)NC(=O)[C@H](CCCNC(=N)N)NC1=O)[C@@H](C)O)C(C)C — IC50 (H1975 (EGFR L858R/T790M); cell viability, ATP luminescence; 18 h): > 100 µM
CCOc1ccccc1-n1c(CN2CCNCC2)nc2ccccc2c1=O — IC50 (ASPC1; cell growth or viability; 72 h): 0.237 µM
CC(=O)N[C@H](C(=O)N[C@@H](CCCNC(=N)N)C(=O)N[C@@H](CCCCN)C(=O)N[C@@H](CCCNC(=N)N)C(=O)N[C@]1(C)CCCC=CCCC[C@@](C)(C(=O)N[C@@H](CC(C)C)C(=O)N[C@@H](CC(C)C)C(=O)N[C@@H](CCC(N)=O)C(=O)N[C@@H](CCC(=O)O)C(=O)N[C@@H](CCCNC(=N)N)C(=O)N[C@@H](CCC(=O)O)C(=O)N[C@@H](CC(C)C)C(=O)N[C@H](C(=O)N[C@@H](CCC(=O)O)C(N)=O)C(C)C)NC(=O)[C@H](CCCNC(=N)N)NC(=O)[C@H](CC(C)C)NC1=O)C(C)C — IC50 (H2030 (wild-type EGFR); cell viability, ATP luminescence; 18 h): 43.4 ± 2.51 µM
[CH3][Ti+2][O]C(=O)c1ccc([S][Au][PH](c2ccccc2)(c2ccccc2)c2ccccc2)cc1.c1cc[cH-]c1.c1cc[cH-]c1 — IC50 (renal proximal tubule cells; cytotoxicity, XTT; 24 h): 3.88 ± 0.86 µM
Cc1ccc(C(C)C)cc1.F[P-](F)(F)(F)(F)F.[Cl][Os+]1[N]2C=CC=c3ccc4c(c32)[N]1C=CC=4 — IC50 (B16-F10; cell growth or viability, MTT): > 100 µM
Cc1cc(Oc2nc(N3CC[C@@H](c4ccncc4)C3)ncc2F)[nH]n1 — IC50 (NCI-H292; cell proliferation; lung cancer): 47.9 µM
CC(=O)N[C@H](C(=O)N[C@@H](CCCNC(=N)N)C(=O)N[C@@H](CCCCN)C(=O)N[C@@H](CCCNC(=N)N)C(=O)N[C@]1(C)CCCCCCC=CCCC[C@@](C)(C(=O)N[C@@H](CCCNC(=N)N)C(=O)N[C@@H](CCC(=O)O)C(=O)N[C@@H](CC(C)C)C(=O)N[C@H](C(=O)N[C@@H](CCC(=O)O)C(N)=O)C(C)C)NC(=O)[C@H](CCC(N)=O)NC(=O)[C@H](C)NC(=O)[C@H](C)NC(=O)[C@H](CCCNC(=N)N)NC(=O)[C@H](CCCNC(=N)N)NC(=O)[C@H](C)NC1=O)C(C)C — IC50 (H2030, wild-type EGFR): 4.57 µM and 7.94 µM

A few entries again:
CCC1=C(C)C2=C(c3ccc(P(=NC4=[O+][Ru-]([Cl])[n+]5ccccc54)(c4ccccc4)c4ccccc4)cc3)c3c(C)c(CC)c(C)n3[B-](C)(C)[N+]2=C1C.Cc1ccc(C(C)C)cc1.Cl — IC50 (MCF-10A; cell growth or viability, MTT): 66.9 µM
COc1cccc2c1C(=O)C=CC2=O — IC50 (HFF-1; cell growth or viability, MTT; 48 h): 14.1 µM
